Experimental data from different studies.
Parts stem from different laboratories: compare values within a part only. Changes are numbered by the printed parent chain.

Set 1
Target: PABPC1L2, full length, GST fusion (mouse, UniProt A0ABA7IW68)
Method: RNAcompete
Form: RNA
Sample: in vitro
Concentration: 20 nM
Setting: 7-mer, probes averaged, single round
Baseline: mean of 7-mers
Reading: higher = stronger binding
Construct (chain): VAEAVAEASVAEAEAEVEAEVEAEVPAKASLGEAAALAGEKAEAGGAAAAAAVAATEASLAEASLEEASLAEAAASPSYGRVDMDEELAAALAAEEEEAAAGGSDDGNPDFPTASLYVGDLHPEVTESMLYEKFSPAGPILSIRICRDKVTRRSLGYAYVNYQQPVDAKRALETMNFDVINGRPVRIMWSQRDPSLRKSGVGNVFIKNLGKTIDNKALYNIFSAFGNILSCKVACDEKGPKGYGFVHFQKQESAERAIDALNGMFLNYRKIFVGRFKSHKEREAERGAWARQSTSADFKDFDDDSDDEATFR
Strand | 7-mer Z-score
UUACUCC | -0.298
AACGGAC | 0.273
CGUUUAU | -0.364
ACGUCUC | -0.284
CGAGUGC | -0.168
UCACGUC | -0.325
UCAGCGU | -0.307
ACCAAGU | -0.115

Set 2
Target: Centromere-binding protein 1, full length, N-terminal tag (CBF1, Saccharomyces cerevisiae, UniProt P17106, residues 1-351)
UniProt P17106, sequence (whole entry, looked up): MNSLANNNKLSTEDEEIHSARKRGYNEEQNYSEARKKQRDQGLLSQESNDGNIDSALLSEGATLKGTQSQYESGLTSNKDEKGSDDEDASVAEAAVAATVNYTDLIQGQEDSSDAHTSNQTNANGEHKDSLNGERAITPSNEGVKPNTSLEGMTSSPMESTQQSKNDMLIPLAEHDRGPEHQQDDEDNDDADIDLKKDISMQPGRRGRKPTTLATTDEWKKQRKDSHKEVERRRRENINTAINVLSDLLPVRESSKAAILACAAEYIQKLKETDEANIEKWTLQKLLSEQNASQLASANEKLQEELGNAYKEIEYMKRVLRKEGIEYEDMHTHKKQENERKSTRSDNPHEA
Method: protein-binding microarray
Form: double-stranded DNA, one strand shown
Sample: in vitro
Concentration: 0.8 µM
Setting: whole 60-bp probe, no competitor
Reading: higher = stronger binding
Strand | fluorescence intensity
CTAACGGTGAACTGTCACGAGAACCCTTACTTGTTCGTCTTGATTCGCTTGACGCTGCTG | 980 a.u.
GAATTCTTATTTTAAGTGATGATGTTCACGAACTAGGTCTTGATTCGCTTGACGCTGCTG | 519 a.u.
GAAGTGACGCCCTGTTAGGTGACATTAGAAAGGTAGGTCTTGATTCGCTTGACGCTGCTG | 531 a.u.
TGTACGAAGCTATGACTTGTGATTATAGTAGTTAGGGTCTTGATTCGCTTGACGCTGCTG | 557 a.u.
CTAATAGCAATCGTTTGTGATCACCATTGTCGATTCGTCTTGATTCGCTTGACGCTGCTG | 524 a.u.
CTACAGAAAAGCTGACACGTTTCTCCCACTGTATTCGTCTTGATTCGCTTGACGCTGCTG | 618 a.u.
GAAAAGAAAATTCAGCATGTGCGAAGGAAGGTATAGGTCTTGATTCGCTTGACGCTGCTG | 707 a.u.
CTACATTTCCATCTTCACGCAATCGTCCGGGCATTCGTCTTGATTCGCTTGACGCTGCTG | 546 a.u.

Set 3
Target: UDP-N-acetylglucosamine--peptide N-acetylglucosaminyltransferase 110 kDa subunit (OGT, Homo sapiens, UniProt O15294)
Effect on: phage display binding
Method: phage display panning NGS
Form: peptide
Baseline: OGT-panned over input library
Target sequence (O15294 1-1046): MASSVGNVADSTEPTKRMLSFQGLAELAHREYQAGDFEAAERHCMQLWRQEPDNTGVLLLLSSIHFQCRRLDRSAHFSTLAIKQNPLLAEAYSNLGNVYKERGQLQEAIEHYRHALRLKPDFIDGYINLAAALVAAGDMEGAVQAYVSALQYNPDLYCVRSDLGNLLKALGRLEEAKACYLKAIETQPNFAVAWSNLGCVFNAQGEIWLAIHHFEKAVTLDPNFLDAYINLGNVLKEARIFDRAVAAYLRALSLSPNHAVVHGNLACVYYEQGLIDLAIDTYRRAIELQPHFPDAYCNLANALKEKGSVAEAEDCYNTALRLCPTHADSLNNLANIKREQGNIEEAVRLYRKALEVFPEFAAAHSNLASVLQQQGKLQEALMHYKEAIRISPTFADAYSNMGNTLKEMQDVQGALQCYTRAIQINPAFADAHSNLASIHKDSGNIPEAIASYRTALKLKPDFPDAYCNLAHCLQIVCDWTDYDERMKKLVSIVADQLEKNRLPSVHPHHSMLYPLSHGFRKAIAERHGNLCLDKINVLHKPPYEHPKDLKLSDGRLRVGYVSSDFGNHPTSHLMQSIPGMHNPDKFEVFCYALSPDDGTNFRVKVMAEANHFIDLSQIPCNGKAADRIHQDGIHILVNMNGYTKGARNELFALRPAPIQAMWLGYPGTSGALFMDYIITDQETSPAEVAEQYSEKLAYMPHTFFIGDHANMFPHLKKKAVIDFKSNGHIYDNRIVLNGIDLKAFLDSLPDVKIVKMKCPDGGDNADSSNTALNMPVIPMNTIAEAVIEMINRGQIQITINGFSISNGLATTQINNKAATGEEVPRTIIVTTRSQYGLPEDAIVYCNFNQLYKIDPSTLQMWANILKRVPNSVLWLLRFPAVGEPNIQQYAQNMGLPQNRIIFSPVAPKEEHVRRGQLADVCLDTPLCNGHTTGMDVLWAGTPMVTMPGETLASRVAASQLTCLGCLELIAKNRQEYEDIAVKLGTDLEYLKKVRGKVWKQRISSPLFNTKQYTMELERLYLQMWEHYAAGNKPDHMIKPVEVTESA
Sequence | log2 fold enrichment
TVWPHHSPHHDYDT | 2.91
WPHTMHAAKHDFHF | 2.64
HWTSMAFMHHWEPE | 2.66
HDGLKWGKHFTHHRG | 2.04

Set 4
Target: inorganic phosphate, free oxyanion
Method: microfluidic competitive inhibition
Sample: in vitro, cell-free expressed
Concentration: not given
Setting: derived from inhibition constants, unchanged parent 615000 nM
Reading: lower = stronger binding
Starting sequence: PafA, mature enzyme, eGFP fusion (Elizabethkingia meningoseptica, UniProt Q9KJX5); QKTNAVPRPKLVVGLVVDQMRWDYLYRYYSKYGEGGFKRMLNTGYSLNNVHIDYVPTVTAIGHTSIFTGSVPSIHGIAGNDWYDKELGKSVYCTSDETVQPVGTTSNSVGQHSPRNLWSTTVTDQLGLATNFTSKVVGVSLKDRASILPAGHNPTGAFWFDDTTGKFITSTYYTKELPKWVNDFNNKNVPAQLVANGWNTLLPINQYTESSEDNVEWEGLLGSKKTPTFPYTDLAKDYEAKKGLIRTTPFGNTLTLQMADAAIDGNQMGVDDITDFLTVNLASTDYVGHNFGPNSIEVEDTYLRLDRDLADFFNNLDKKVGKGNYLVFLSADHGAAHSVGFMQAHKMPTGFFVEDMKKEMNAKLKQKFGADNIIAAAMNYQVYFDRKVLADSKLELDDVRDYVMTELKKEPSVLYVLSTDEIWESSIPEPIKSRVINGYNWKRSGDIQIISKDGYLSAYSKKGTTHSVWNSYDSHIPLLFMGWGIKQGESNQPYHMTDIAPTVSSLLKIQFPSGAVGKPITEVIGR
Change | phosphate dissociation constant
F276G | 427 µM
G525V | 653 µM
A259V | 611 µM
S134V | 526 µM
V6G | 542 µM
V279A | 507 µM

Repeated from above (set 1):
Strand | 7-mer Z-score
CGAGUGC | -0.168
UUACUCC | -0.298
CGUUUAU | -0.364
ACCAAGU | -0.115
